Assay results pooled from the literature.
Compare with care: the assays were run in different laboratories.
Cell line: Vero

Structure (SMILES) | assay | setting | quantity | result
CC(=O)OC[C@H]1O[C@@H](NC(=O)NC(=O)[C@@H](C)Cc2ccc(C(C)C)cc2)[C@H](OC(C)=O)[C@@H](OC(C)=O)[C@@H]1OC(C)=O | – | – | minimum cytotoxic concentration | > 100 µM
CC[C@H](C)[C@H](NC(=O)[C@H](CC(C)C)NC(=O)CNC(=O)[C@H](CCCCN)NC(=O)[C@@H](NC(=O)[C@@H](NC(=O)[C@H](CC(N)=O)NC(=O)[C@H](Cc1c[nH]c2ccccc12)NC(=O)[C@@H](NC(=O)[C@H](CCC(=O)O)NC(=O)CNC(=O)[C@H](Cc1c[nH]c2ccccc12)NC(=O)[C@@H](N)CC(C)C)[C@@H](C)CC)[C@@H](C)O)C(C)C)C(N)=O | MTT | 10 µg/mL, 48 h | viability | > 95%
Cc1nc2ccccc2n1CC(=O)NO | – | 100 µM, 24 h | cytotoxicity | not toxic
O=C(Cc1csc2nc(-c3ccc(Br)cc3)cn12)NN=C1CCCC1 | microscopy of cell morphology | – | minimum cytotoxic concentration | ≥ 100 µg/mL
O=c1[nH]c(=O)c2cccc(O)c2o1 | cytotoxicity | up to 50 µg/mL | IC50 | inactive
NC(=O)c1ccc[n+](-c2ccccc2)c1 | cell growth or viability | 25 µM, 72 h | viability | > 80%
CO[C@H]1CC(O)=C2C(=O)c3c(cc(C)c(-c4c(C)cc5c(c4O)C(=O)C4=C(O)C[C@H](OC)[C@@H](O)[C@]4(C)O5)c3O)O[C@@]2(C)[C@@H]1O | cytotoxicity | 4 d | IC50 | 4.7 µM
O=C(/C=C/c1ccccc1)c1cc2ccccc2oc1=O | MTT | up to 100 µg/mL, 48 h | viability | > 80%
CC(C)(C)[Si](C)(C)OC[C@H]1O[C@@H](n2cc(I)c(=O)[nH]c2=O)[C@H](I)[C@@H](O[Si](C)(C)C(C)(C)C)[C@@H]1O[Si](C)(C)C(C)(C)C | MTT | concentration not given | cytotoxicity | toxic
COc1cc(O)c2c(=O)c3c(O)c(-c4c(C)cc5c(c4O)C(=O)C4=C(O)C[C@H](OC)[C@@H](O)[C@]4(C)O5)c(C)cc3oc2c1OC | cytotoxicity | 4 d | IC50 | 21.6 µM
O=C1/C(=N\NC(=S)NN=Cc2cccs2)c2ccccc2N1Cc1ccccc1 | cell morphology | – | minimum cytotoxic concentration | 100 µM
CC(C)(C)[Si](C)(C)OC[C@H]1O[C@@H](n2ccc(=O)[nH]c2=O)[C@H](I)[C@@H](O[Si](C)(C)C(C)(C)C)[C@@H]1O[Si](C)(C)C(C)(C)C | MTT | concentration not given | cytotoxicity | toxic
